Assay results of several laboratories.
Lines come from different studies, so protocols differ. ± marks the error that the study gave.

SMILES | test | test system | conditions | unbound fraction
Nc1c(CC(=O)O)cccc1C(=O)c1ccc(Br)cc1 | in vitro | liver |  | 0.036
CCONC(=O)N1CCC[C@H](C(=O)NCc2nc(-c3ccc(C#N)cc3)cs2)C1 | plasma protein binding | rat plasma |  | 0.048
Cc1cccc(Nc2ccccc2C(=O)O)c1C | equilibrium dialysis | human liver microsomes 0.25 mg/mL, 2% BSA | 6 h | 0.025
CC[N+]1(C)CCN(c2ccc(C(=O)Nc3cccc(C)n3)cc2)CC1 |  | human plasma |  | 0.46
N#C[C@@]1(c2ccc3c(N)ncnn23)O[C@H](CO)[C@@H](O)[C@H]1O | plasma protein binding | mouse plasma | 1 µM | 0.963
CC(C)c1nc(N(C)S(C)(=O)=O)nc(-c2ccc(F)cc2)c1/C=C/[C@@H](O)C[C@@H](O)CC(=O)O | in vitro | plasma |  | 0.192
NCCOCC(=O)N1CCC[C@H](C(=O)NCc2nc(-c3ccc(C(F)(F)F)cc3)cs2)C1 | plasma protein binding | human plasma |  | 0.046
Nc1ncnc2c1c(Oc1cc(C(F)(F)F)ccn1)nn2[C@@H]1CCCC[C@H]1O |  | mouse brain tissue |  | 4.1%
O=C1N[C@H](c2cncc(C#Cc3ccccc3)c2)[C@@H](c2ccccc2Cl)O1 |  | human plasma |  | < 0.01
CO[C@H]1C[C@@H]2CC[C@@H](C)[C@@](O)(O2)C(=O)C(=O)N2CCCC[C@H]2C(=O)O[C@H]([C@H](C)C[C@@H]2CC[C@@H](OC(=O)NCCOCCOCCOCCOCCOCCOCCOCCOCCC(=O)N3CCc4cc(Cn5nc(-c6ccc7oc(N)nc7c6)c6c(N)ncnc65)ccc4C3)[C@H](OC)C2)C[C@@H](O)[C@H](C)/C=C(\C)[C@@H](O)[C@@H](OC)C(=O)[C@H](C)C[C@H](C)/C=C/C=C/C=C/1C | ultracentrifugation | mouse plasma | 5 µM | 0.004
CCOCC(=O)N1CCC[C@H](C(=O)NCc2nc(-c3ccc(C#N)nc3)cs2)C1 | plasma protein binding | rat plasma |  | 0.053
Cc1ncc(CO)c(C(=O)O)c1O |  | plasma |  | 0.081 ± 0.0004
CCc1cc(NC(=O)COc2cc(Cl)ccc2Cl)n(C2CCOCC2)n1 |  | human plasma |  | 0.049
COCC(=O)N1CCC[C@H](C(=O)NCc2nc(-c3ccccc3)cs2)C1 | plasma protein binding | rat plasma |  | 0.019
Cc1ccc(Nc2cnnc3ccc(-c4ccc(N5CCCN(C)CC5)cc4)cc23)cn1 | equilibrium dialysis | human plasma | 10 µM, pH 7.4 | 0.12
CN1CCN(c2ccc(C(=O)Nc3n[nH]c4ccc(Cc5cc(F)cc(F)c5)cc34)c(NC3CCOCC3)c2)CC1 | rapid equilibrium dialysis | human plasma |  | 0.00254
CC(C)(C(=O)NC1C2CC3CC1CC(C(N)=O)(C3)C2)N1CCN(c2ccc(C(F)(F)F)cn2)CC1 (stereo not drawn) | in vitro | human plasma |  | 0.022
Cn1cncc1[C@@](N)(c1ccc(Cl)cc1)c1ccc2c(c1)c(-c1cccc(Cl)c1)cc(=O)n2C |  | cancer patients, plasma |  | 0.0062
CC(=O)N1CCN(c2ccc(OCC3COC(Cn4ccnc4)(c4ccc(Cl)cc4Cl)O3)cc2)CC1 (stereo not drawn) | equilibrium dialysis | mouse plasma | 1 µM, 6 h | 0.0074
COCC(=O)N1CCC[C@H](C(=O)NCc2nc(-c3ccc(C#N)cc3)cs2)C1 | plasma protein binding | human plasma |  | 0.075
CS(=O)(=O)N1CCN(Cc2cc3nc(-c4cccc5[nH]ncc45)nc(N4CCOCC4)c3s2)CC1 |  | plasma |  | 0.05
Cc1cc(C)c(CNC(=O)c2cc(Cl)c3c(c2C)O[C@@](C)([C@H]2CC[C@H](N(C)C)CC2)O3)c(=O)[nH]1 | ultracentrifugation | solution, alpha-1 acid glycoprotein, 0.1% | 1000 ng/mL, 160 min | 0.0881
CCCOc1ccc([C@H]2CNC(=O)N2c2ccc3[nH]cnc3c2)cc1 | equilibrium dialysis | diluted human serum |  | 0.46
Cc1c(C(=O)O)ccc2c3n(nc12)[C@@H]1[C@H](C3)N(CC2CC2)[C@@]2(C(=O)Nc3cc(Cl)ccc32)[C@H]1c1cccc(Cl)c1F | equilibrium dialysis | Göttingen minipig, both sexes, plasma | pH 7.4 | 0.0065
Cc1cc(Nc2ccc(C(F)(F)F)cc2)c2ccccc2n1 | rapid equilibrium dialysis | diluted mouse plasma | 2 µM | 0.03
COc1cc(N2CCC(N3CCN(C)CC3)CC2)ccc1Nc1ncc(Cl)c(Nc2ccccc2P(C)(C)=O)n1 |  | healthy subjects, plasma | ex vivo | 8.83%
CN[C@@H](C)C(=O)N[C@H]1CN(C(=O)CC(C)C)CC[C@H]2CC[C@@H](C(=O)NC(c3ccccc3)c3ccccc3)N2C1=O | ultrafiltration | plasma | 1 µg/mL, 37 °C | 0.185

Repeated from above:
SMILES | test | test system | conditions | unbound fraction
COc1cc(N2CCC(N3CCN(C)CC3)CC2)ccc1Nc1ncc(Cl)c(Nc2ccccc2P(C)(C)=O)n1 |  | healthy subjects, plasma | ex vivo | 8.83%
CN1CCN(c2ccc(C(=O)Nc3n[nH]c4ccc(Cc5cc(F)cc(F)c5)cc34)c(NC3CCOCC3)c2)CC1 | rapid equilibrium dialysis | human plasma |  | 0.00254
CN[C@@H](C)C(=O)N[C@H]1CN(C(=O)CC(C)C)CC[C@H]2CC[C@@H](C(=O)NC(c3ccccc3)c3ccccc3)N2C1=O | ultrafiltration | plasma | 1 µg/mL, 37 °C | 0.185
